Results collected from several papers.
Numbers after ± are the reported error.
Chain of UniProt P35372 (whole entry, looked up): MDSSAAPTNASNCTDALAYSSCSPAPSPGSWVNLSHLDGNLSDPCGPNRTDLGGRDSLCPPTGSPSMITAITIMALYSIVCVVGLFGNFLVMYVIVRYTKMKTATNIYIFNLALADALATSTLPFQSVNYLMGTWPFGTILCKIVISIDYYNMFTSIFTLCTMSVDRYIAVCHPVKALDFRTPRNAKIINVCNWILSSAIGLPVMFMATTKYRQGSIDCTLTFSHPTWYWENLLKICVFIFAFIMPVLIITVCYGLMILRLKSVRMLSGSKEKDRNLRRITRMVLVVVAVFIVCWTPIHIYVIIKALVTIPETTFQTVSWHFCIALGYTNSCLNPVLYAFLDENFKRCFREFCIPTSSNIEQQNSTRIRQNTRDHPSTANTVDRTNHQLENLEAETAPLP

Cc1cn2nc([C@@H]3CCCCN3C(=O)c3cc(Cl)ccc3NS(C)(=O)=O)cc2nc1N1CC[C@H](N)C1
IC50 (SARS-CoV-2; viral replication; Vero E6, wild type): 2.81 µM

CC(C)C[C@H](NC(=O)[C@H](CO[C@@H]1O[C@H](CO)[C@@H](O[C@@H]2O[C@H](CO)[C@H](O)[C@H](O)[C@H]2O)[C@H](O)[C@H]1O)NC(=O)[C@H](CCCCN)NC(=O)[C@H](CC(C)C)NC(=O)CNC(=O)[C@H](CCCCN)NC(=O)[C@H](CCC(=O)O)NC(=O)CNC(=O)[C@H](CC(C)C)NC(=O)[C@H](CC(N)=O)NC(=O)[C@@H]1CCCN1C(=O)[C@H](CC(C)C)NC(=O)[C@H](Cc1ccccc1)NC(=O)CNC(=O)[C@H](NC(=O)[C@@H](N)Cc1ccc(O)cc1)[C@H](C)O)C(N)=O
Ki (OPRM1 (Homo sapiens, UniProt P35372); radioligand displacement; CHO membranes; 60 min, pH 7.5, 25 °C, added: 0.25 nM [3H]DAMGO): 0.005 ± 0.00037 µM

Cc1ccc(N2CC(N3CCC(C)(O)CC3)C2)cc1C(=O)NC1(c2ccc3c4c(cccc24)C(=O)N3C)CC1
IC50 (SARS-CoV-2; viral replication; Vero C1008, XBB.1): 0.0407 ± 0.0105 µM

CC1OC(OC2C(OC(=O)C34CCC(C)(C)CC3C3=CCC5C6(C)CCC(OC7OC(CO)C(O)C(O)C7O)C(C)(C)C6CCC5(C)C3(C)CC4O)OCC(O)C2O)C(O)C(O)C1OC1OCC(O)C(OC2OCC(O)C(OC3OCC(O)C(O)C3O)C2O)C1O (stereo not shown)
IC50 (SARS-CoV-2; viral entry; A549-ACE2-TMPRSS2, NLuc reporter virus; 24 h): 2.01 µM

O=C(Nc1ccc([N+](=O)[O-])cc1Cl)c1cc(Cl)ccc1O
IC50 (SARS-CoV-2; viral replication; Vero E6): 0.33 µM

CCOP(=O)(O)Oc1c2c(c(OP(=O)(O)OCC)c3c1C1CC3c3cc4c(cc31)C1CC4c3ccccc31)C1CC2c2cc3c(cc21)C1CC3c2ccccc21
IC50 (SARS-CoV-2; spike pseudoparticle entry; Caco-2): 29.5 µM

CCN(CC)CCCC(C)Nc1c2cc(OC)ccc2nc2ccc(C(F)(F)F)cc12 (stereo not shown)
IC50 (SARS-CoV-2; viral replication; U2OS, BetaCoV/France/IDF0372/2020): 1.81 µM

CC1(C)CC[C@]2(C(=O)O[C@@H]3OC[C@@H](O)[C@H](O[C@@H]4OC[C@@H](O)[C@H](O[C@@H]5OC[C@@H](O)[C@H](O[C@@H]6OC[C@@H](O)[C@H](O)[C@H]6O)[C@H]5O)[C@H]4O)[C@H]3O)CC[C@]3(C)C(=CC[C@@H]4[C@@]5(C)CC[C@H](O[C@@H]6O[C@H](CO)[C@@H](O)[C@H](O)[C@H]6O)C(C)(C)[C@@H]5CC[C@]43C)[C@@H]2C1
IC50 (SARS-CoV-2; pseudovirus cell entry, luciferase reporter; NCI-H1299 ACE2-expressing; 24 h): 8.84 µM

CC1CC2C3(O)C1OC(=O)C=CC=CC(OC(=O)c1ccccc1)C1CCC(CC(C)(O)C4(O)C5OC6(c7ccccc7)OC4C(C4OC4(C)C3O)C2(O6)C5C)C1C (stereo not shown)
IC50 (SARS-CoV-2; viral replication; Vero E6): 0.13 µM

C=CCCCCOP(=O)(O)Oc1c2c(c(OP(=O)(O)OCCCCC=C)c3c1C1CC3c3cc4c(cc31)C1CC4c3ccccc31)C1CC2c2cc3c(cc21)C1CC3c2ccccc21
IC50 (SARS-CoV-2; spike pseudoparticle entry; Caco-2): 16.8 µM

CC1OC(OC2C(OCC34CCC(C)(C)CC3C3=CCC5C6(C)CCC(OC7OC(CO)C(O)C(O)C7O)C(C)(C)C6CCC5(C)C3(C)CC4O)OCC(O)C2O)C(O)C(O)C1OC1OCC(O)C(OC2OCC(O)C(O)C2O)C1O (stereo not shown)
IC50 (SARS-CoV-2; pseudovirus cell entry, luciferase reporter; NCI-H1299 ACE2-expressing; 24 h): > 10 µM

O=P(O)(OCCc1ccccc1)Oc1c2c(c(OP(=O)(O)OCCc3ccccc3)c3c1C1CC3c3cc4c(cc31)C1CC4c3ccccc31)C1CC2c2cc3c(cc21)C1CC3c2ccccc21
IC50 (SARS-CoV-2; spike pseudoparticle entry; Caco-2): 1.6 µM

Cc1oc2nc1C(=O)N[C@](C)(C(=O)NCCc1ccccc1)c1nc(c(C)o1)C(=O)N[C@](C)(C(=O)NCCc1ccccc1)c1nc(c(C)o1)C(=O)N[C@]2(C)C(=O)NCCc1ccccc1
IC50 (SARS-CoV-2; viral replication; Vero E6, NRC-03-nhCoV; 72 h): 24.7 µM

C=CCCCOP(=O)(O)Oc1c2c(c(OP(=O)(O)OCCCC=C)c3c1C1CC3c3cc4c(cc31)C1CC4c3ccccc31)C1CC2c2cc3c(cc21)C1CC3c2ccccc21
IC50 (SARS-CoV-2; spike pseudoparticle entry; Caco-2): 6 µM

COc1ccc2nc3ccc(C(F)(F)F)cc3c(Nc3ccc(O)c(CN4CCCC4)c3)c2c1
IC50 (SARS-CoV-2; viral replication; U2OS, BetaCoV/France/IDF0372/2020): 1.9 µM

Cc1oc2nc1C(=O)N[C@](C)(C(=O)OC(C)C)c1nc(c(C)o1)C(=O)N[C@](C)(C(=O)OC(C)C)c1nc(c(C)o1)C(=O)N[C@]2(C)C(=O)OC(C)C
IC50 (SARS-CoV-2; viral replication; Vero E6, NRC-03-nhCoV; 72 h): 18.3 µM

Cc1ccc(N2CC3CC(C2)N3C)cc1C(=O)NC1(c2ccc3c4c(cccc24)C(=O)N3C)CC1
IC50 (SARS-CoV-2; viral replication; Vero C1008, XBB.1): 0.063 ± 0.0062 µM

Cc1ccc(COP(=O)(O)Oc2c3c(c(OP(=O)(O)OCc4ccc(C)cc4)c4c2C2CC4c4cc5c(cc42)C2CC5c4ccccc42)C2CC3c3cc4c(cc32)C2CC4c3ccccc32)cc1
IC50 (SARS-CoV-2; spike pseudoparticle entry; Caco-2): 1.6 µM

CC[C@H](C)[C@H](NC(=O)[C@H](C)NC(=O)[C@H](CCC(=O)O)NC(=O)[C@H](CCC(=O)O)NC(=O)[C@H](CC(C)C)NC(=O)[C@H](CCCCN)NC(=O)[C@H](CCCCN)NC(=O)[C@H](CCSC)NC(=O)[C@H](CCC(=O)O)NC(=O)[C@H](Cc1ccc(O)cc1)NC(=O)[C@H](CCC(=O)O)NC(=O)[C@H](CC(C)C)NC(=O)[C@H](CC(=O)O)NC(=O)[C@H](CC(C)C)NC(=O)[C@H](Cc1ccccc1)NC(=O)[C@@H](NC(=O)[C@@H](NC(=O)[C@@H](N)CC(N)=O)C(C)C)[C@@H](C)O)C(=O)N[C@@H](CCCCN)C(=O)N[C@@H](CCCCN)C(=O)N[C@@H](CC(C)C)C(=O)N[C@@H](CCC(=O)O)C(=O)N[C@@H](CCC(=O)O)C(=O)N[C@@H](CO)C(=O)N[C@@H](Cc1ccc(O)cc1)C(=O)N[C@H](C(=O)N[C@@H](CC(=O)O)C(=O)N[C@@H](CC(C)C)C(=O)N[C@@H](CCCCN)C(=O)N[C@@H](CCC(=O)O)C(=O)N[C@@H](CC(C)C)C(=O)NCC(=O)N[C@H](C(=O)N[C@@H](Cc1ccc(O)cc1)C(=O)N[C@@H](CCC(=O)O)C(=O)N[C@@H](Cc1ccc(O)cc1)C(=O)NCC(=O)N[C@@H](CO)C(=O)NCC(=O)N[C@@H](CSCC(=O)O[C@H]1CC[C@@]2(C)C(=CC[C@H]3[C@@H]4CC[C@H]([C@H](C)CCCC(C)C)[C@@]4(C)CC[C@@H]32)C1)C(N)=O)[C@@H](C)O)[C@@H](C)CC
IC50 (SARS-CoV-2; viral replication): 0.003 µM

O=P(O)(O)Oc1c2c(c(OP(=O)(O)O)c3c1C1CC3c3cc4c(cc31)C1CC4c3ccccc31)C1CC2c2cc3c(cc21)C1CC3c2ccccc21
IC50 (SARS-CoV-2; spike pseudoparticle entry; Caco-2): 35 µM

COc1ccc2nc3ncccc3c(Nc3cc(CN4CCCC4)c(O)c(CN4CCCC4)c3)c2c1
IC50 (SARS-CoV-2; viral replication; U2OS, BetaCoV/France/IDF0372/2020): 1.95 µM

O=P(O)(OCCCc1ccccc1)Oc1c2c(c(OP(=O)(O)OCCCc3ccccc3)c3c1C1CC3c3cc4c(cc31)C1CC4c3ccccc31)C1CC2c2cc3c(cc21)C1CC3c2ccccc21
IC50 (SARS-CoV-2; spike pseudoparticle entry; Caco-2): 1.5 µM

CCC(CC)COC(=O)[C@H](C)N[P@](=O)(OC[C@H]1O[C@@](C#N)(c2ccc3c(N)ncnn23)[C@H](O)[C@@H]1O)Oc1ccccc1
IC50 (SARS-CoV-2; viral replication, RT-qPCR, item: viral RNA in supernatant; Calu-3, RIM-1): 0.094 µM

[N-]=[N+]=NCCOP(=O)(O)Oc1c2c(c(OP(=O)(O)OCCN=[N+]=[N-])c3c1C1CC3c3cc4c(cc31)C1CC4c3ccccc31)C1CC2c2cc3c(cc21)C1CC3c2ccccc21
IC50 (SARS-CoV-2; spike pseudoparticle entry; Caco-2): 37.4 µM

CC1(C)CCC2(C(=O)OC3OCC(O)C(O)C3O)CCC3(C)C(=CCC4C5(C)CCC(OC6OC(CO)C(O)C(O)C6O)C(C)(C)C5CCC43C)C2C1 (stereo not shown)
IC50 (SARS-CoV-2; pseudovirus cell entry, luciferase reporter; NCI-H1299 ACE2-expressing; 24 h): > 10 µM

Oc1ccc(Nc2c3cc(Cl)ccc3nc3ccc(Cl)cc23)cc1CN1CCCC1
IC50 (SARS-CoV-2; viral replication; U2OS, BetaCoV/France/IDF0372/2020): 1.75 µM

O=c1c2ccccc2[se]n1-c1cccc(F)c1
IC50 (SARS-CoV-2): 19.9 µM

CN(C)Cc1cc(Nc2c3ccc(Cl)cc3nc3ccc(Cl)cc23)cc(CN(C)C)c1O
IC50 (SARS-CoV-2; viral replication; U2OS, BetaCoV/France/IDF0372/2020): 10.2 µM

CCCCCCCCCCCCCCCC(=O)N[C@@H](CCC(=O)NCCOCCOCCC(=O)NCCOCCOCCC(=O)NCCCC[C@H](NC(=O)[C@H](CC(=O)O)NC(=O)[C@H](CC(C)C)NC(=O)[C@H](Cc1ccc(O)cc1)NC(=O)[C@H](CCCCN)NC(=O)[C@H](CO)NC(=O)[C@H](Cc1ccc(O)cc1)NC(=O)[C@H](CC(=O)O)NC(=O)[C@H](CO)NC(=O)[C@@H](NC(=O)[C@H](Cc1ccccc1)NC(=O)[C@@H](NC(=O)CNC(=O)[C@H](CCC(N)=O)NC(=O)[C@@H](CO)NC(=O)[C@@H](N)Cc1c[nH]cn1)[C@@H](C)O)[C@@H](C)O)C(=O)N[C@@H](CCCNC(=N)N)C(=O)N[C@@H](CCCNC(=N)N)C(=O)N[C@@H](C)C(=O)N[C@@H](CCC(N)=O)C(=O)N[C@@H](CC(=O)O)C(=O)N[C@@H](Cc1ccccc1)C(=O)N[C@H](C(=O)N[C@@H](CCC(N)=O)C(=O)N[C@@H](Cc1c[nH]c2ccccc12)C(=O)N[C@@H](CC(C)C)C(=O)N[C@@H](CC(C)C)C(=O)N[C@@H](CC(N)=O)C(=O)N[C@H](C(=O)NCC(=O)NCC(=O)N1CCC[C@H]1C(=O)N[C@@H](CO)C(=O)N[C@@H](CO)C(=O)NCC(=O)N[C@@H](C)C(=O)N1CCC[C@H]1C(=O)N1CCC[C@H]1C(=O)N1CCC[C@H]1C(=O)N[C@@H](CO)C(N)=O)[C@@H](C)O)C(C)C)C(=O)O
MRT (rhesus monkey, plasma; subcutaneous, 20 µg/kg, single dose): 5.85 h

COc1ccc2nc3ccc(Cl)cc3c(Nc3ccc(O)c(CN4CCCC4)c3)c2c1
IC50 (SARS-CoV-2; viral replication; U2OS, BetaCoV/France/IDF0372/2020): 0.48 µM

COc1cc2c(cc1O)CCN[C@]21CS[C@@H]2c3c(OC(C)=O)c(C)c4c(c3[C@H](COC1=O)N1[C@@H]2[C@H]2c3c(cc(C)c(OC)c3O)C[C@@H]([C@@H]1C#N)N2C)OCO4
IC50 (SARS-CoV-2; viral replication, RT-qPCR, item: viral RNA in supernatant; Calu-3, RIM-1): 0.00184 µM

For quick reference, copied from above:
CN(C)Cc1cc(Nc2c3ccc(Cl)cc3nc3ccc(Cl)cc23)cc(CN(C)C)c1O
IC50 (SARS-CoV-2; viral replication; U2OS, BetaCoV/France/IDF0372/2020): 10.2 µM

CCCCCCCCCCCCCCCC(=O)N[C@@H](CCC(=O)NCCOCCOCCC(=O)NCCOCCOCCC(=O)NCCCC[C@H](NC(=O)[C@H](CC(=O)O)NC(=O)[C@H](CC(C)C)NC(=O)[C@H](Cc1ccc(O)cc1)NC(=O)[C@H](CCCCN)NC(=O)[C@H](CO)NC(=O)[C@H](Cc1ccc(O)cc1)NC(=O)[C@H](CC(=O)O)NC(=O)[C@H](CO)NC(=O)[C@@H](NC(=O)[C@H](Cc1ccccc1)NC(=O)[C@@H](NC(=O)CNC(=O)[C@H](CCC(N)=O)NC(=O)[C@@H](CO)NC(=O)[C@@H](N)Cc1c[nH]cn1)[C@@H](C)O)[C@@H](C)O)C(=O)N[C@@H](CCCNC(=N)N)C(=O)N[C@@H](CCCNC(=N)N)C(=O)N[C@@H](C)C(=O)N[C@@H](CCC(N)=O)C(=O)N[C@@H](CC(=O)O)C(=O)N[C@@H](Cc1ccccc1)C(=O)N[C@H](C(=O)N[C@@H](CCC(N)=O)C(=O)N[C@@H](Cc1c[nH]c2ccccc12)C(=O)N[C@@H](CC(C)C)C(=O)N[C@@H](CC(C)C)C(=O)N[C@@H](CC(N)=O)C(=O)N[C@H](C(=O)NCC(=O)NCC(=O)N1CCC[C@H]1C(=O)N[C@@H](CO)C(=O)N[C@@H](CO)C(=O)NCC(=O)N[C@@H](C)C(=O)N1CCC[C@H]1C(=O)N1CCC[C@H]1C(=O)N1CCC[C@H]1C(=O)N[C@@H](CO)C(N)=O)[C@@H](C)O)C(C)C)C(=O)O
MRT (rhesus monkey, plasma; subcutaneous, 20 µg/kg, single dose): 5.85 h

COc1ccc2nc3ccc(Cl)cc3c(Nc3ccc(O)c(CN4CCCC4)c3)c2c1
IC50 (SARS-CoV-2; viral replication; U2OS, BetaCoV/France/IDF0372/2020): 0.48 µM

COc1cc2c(cc1O)CCN[C@]21CS[C@@H]2c3c(OC(C)=O)c(C)c4c(c3[C@H](COC1=O)N1[C@@H]2[C@H]2c3c(cc(C)c(OC)c3O)C[C@@H]([C@@H]1C#N)N2C)OCO4
IC50 (SARS-CoV-2; viral replication, RT-qPCR, item: viral RNA in supernatant; Calu-3, RIM-1): 0.00184 µM
